Measurements pooled from the literature.
Parts stem from different laboratories: compare values within a part only.
Chain of UniProt O94804 (whole entry, looked up): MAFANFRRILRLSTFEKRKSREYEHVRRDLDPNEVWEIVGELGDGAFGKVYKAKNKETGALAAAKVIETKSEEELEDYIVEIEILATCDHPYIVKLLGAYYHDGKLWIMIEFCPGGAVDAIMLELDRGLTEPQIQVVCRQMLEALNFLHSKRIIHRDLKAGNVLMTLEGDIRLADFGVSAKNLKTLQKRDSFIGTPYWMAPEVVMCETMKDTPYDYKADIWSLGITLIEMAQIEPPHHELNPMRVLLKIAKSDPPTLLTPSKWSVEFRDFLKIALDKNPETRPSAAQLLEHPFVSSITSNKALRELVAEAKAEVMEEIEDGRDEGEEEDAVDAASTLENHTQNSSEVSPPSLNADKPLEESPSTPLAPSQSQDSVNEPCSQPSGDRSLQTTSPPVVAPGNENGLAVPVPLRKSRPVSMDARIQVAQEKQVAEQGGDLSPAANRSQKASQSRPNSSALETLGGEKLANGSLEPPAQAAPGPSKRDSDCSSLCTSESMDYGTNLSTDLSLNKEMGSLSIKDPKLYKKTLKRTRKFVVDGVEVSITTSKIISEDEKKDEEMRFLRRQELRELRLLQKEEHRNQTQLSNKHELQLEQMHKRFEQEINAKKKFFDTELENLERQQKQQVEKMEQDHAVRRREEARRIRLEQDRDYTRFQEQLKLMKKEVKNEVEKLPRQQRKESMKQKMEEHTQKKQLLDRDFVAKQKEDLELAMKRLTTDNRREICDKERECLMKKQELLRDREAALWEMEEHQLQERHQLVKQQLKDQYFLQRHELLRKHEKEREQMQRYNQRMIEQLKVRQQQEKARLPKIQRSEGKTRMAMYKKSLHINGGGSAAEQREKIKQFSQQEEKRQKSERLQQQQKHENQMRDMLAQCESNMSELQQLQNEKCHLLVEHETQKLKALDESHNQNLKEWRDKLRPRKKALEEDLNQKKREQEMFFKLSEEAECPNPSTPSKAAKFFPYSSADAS
Chain of UniProt P10721 (whole entry, unmodified, looked up): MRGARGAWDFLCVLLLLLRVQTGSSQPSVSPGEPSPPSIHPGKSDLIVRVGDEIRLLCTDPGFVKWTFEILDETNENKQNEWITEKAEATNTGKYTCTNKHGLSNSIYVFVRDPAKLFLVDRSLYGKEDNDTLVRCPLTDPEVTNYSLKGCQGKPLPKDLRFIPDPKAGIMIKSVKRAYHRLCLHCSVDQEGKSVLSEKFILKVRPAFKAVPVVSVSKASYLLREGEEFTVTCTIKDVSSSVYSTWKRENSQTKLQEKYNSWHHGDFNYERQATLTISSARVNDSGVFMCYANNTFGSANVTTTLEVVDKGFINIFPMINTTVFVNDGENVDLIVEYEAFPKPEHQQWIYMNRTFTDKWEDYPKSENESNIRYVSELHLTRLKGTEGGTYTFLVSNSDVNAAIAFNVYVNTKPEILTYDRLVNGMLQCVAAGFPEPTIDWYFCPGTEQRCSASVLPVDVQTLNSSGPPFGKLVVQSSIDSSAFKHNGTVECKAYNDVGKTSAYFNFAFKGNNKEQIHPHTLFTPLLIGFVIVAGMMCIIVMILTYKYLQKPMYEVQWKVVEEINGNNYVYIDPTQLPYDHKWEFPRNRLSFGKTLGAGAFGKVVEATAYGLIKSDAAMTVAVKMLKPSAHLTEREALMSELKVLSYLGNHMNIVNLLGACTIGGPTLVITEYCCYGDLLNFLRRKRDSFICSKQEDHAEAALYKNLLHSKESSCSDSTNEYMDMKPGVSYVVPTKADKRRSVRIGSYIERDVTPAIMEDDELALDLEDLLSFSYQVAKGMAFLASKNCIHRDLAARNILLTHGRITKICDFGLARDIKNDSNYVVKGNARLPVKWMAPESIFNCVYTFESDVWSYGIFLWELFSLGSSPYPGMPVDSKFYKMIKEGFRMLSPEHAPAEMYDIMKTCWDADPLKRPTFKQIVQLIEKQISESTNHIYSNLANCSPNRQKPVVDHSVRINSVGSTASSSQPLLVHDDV
Chain of UniProt Q14164 (whole entry, looked up): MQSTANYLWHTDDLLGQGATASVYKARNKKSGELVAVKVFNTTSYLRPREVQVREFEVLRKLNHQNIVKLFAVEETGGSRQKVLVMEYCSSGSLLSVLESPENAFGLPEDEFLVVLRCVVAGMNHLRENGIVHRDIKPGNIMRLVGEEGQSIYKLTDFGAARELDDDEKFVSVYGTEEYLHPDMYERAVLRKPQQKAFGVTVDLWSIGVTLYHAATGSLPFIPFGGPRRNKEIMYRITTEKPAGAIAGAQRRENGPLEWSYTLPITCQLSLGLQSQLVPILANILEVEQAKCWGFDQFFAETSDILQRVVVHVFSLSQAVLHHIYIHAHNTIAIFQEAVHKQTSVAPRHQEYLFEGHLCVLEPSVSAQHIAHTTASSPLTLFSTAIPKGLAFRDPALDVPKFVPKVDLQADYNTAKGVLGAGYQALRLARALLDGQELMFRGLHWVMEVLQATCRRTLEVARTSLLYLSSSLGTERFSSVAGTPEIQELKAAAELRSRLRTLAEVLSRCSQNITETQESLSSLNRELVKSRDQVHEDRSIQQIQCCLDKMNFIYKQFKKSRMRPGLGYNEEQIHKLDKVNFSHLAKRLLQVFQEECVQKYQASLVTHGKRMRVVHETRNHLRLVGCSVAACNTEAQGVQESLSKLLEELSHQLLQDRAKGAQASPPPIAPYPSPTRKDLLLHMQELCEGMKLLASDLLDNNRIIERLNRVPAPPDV
Chain of UniProt P37173 (whole entry, looked up): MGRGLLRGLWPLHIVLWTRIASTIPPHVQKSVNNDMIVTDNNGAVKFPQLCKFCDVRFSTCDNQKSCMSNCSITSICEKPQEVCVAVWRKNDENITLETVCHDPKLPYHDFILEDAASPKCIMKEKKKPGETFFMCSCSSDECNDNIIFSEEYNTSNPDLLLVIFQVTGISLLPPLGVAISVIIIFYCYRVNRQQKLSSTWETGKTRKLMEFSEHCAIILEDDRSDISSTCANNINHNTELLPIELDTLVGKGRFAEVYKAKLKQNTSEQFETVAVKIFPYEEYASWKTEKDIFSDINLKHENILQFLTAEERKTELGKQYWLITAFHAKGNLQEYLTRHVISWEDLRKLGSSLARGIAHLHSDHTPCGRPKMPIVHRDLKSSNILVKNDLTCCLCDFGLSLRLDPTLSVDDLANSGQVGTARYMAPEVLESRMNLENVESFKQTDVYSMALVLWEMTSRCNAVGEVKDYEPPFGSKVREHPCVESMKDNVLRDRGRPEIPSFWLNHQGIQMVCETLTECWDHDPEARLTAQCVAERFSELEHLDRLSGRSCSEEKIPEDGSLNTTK
Chain of UniProt Q99759 (whole entry, looked up): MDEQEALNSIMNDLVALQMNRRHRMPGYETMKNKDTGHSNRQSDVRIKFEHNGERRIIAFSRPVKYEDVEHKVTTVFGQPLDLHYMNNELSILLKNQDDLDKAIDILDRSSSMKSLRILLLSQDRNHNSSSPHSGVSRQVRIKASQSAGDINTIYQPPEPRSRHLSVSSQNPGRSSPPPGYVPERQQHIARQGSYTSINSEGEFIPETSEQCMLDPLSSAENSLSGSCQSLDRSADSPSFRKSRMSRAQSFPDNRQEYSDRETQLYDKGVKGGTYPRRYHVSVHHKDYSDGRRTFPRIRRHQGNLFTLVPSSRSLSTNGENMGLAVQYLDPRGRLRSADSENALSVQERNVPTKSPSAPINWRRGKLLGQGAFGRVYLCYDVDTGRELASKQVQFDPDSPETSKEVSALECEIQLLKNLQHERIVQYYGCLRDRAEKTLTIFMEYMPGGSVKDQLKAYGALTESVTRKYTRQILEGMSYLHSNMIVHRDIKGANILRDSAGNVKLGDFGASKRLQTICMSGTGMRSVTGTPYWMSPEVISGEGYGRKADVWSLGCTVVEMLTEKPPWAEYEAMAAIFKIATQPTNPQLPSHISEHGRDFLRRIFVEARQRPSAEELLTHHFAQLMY
Chain of UniProt O95747 (whole entry, looked up): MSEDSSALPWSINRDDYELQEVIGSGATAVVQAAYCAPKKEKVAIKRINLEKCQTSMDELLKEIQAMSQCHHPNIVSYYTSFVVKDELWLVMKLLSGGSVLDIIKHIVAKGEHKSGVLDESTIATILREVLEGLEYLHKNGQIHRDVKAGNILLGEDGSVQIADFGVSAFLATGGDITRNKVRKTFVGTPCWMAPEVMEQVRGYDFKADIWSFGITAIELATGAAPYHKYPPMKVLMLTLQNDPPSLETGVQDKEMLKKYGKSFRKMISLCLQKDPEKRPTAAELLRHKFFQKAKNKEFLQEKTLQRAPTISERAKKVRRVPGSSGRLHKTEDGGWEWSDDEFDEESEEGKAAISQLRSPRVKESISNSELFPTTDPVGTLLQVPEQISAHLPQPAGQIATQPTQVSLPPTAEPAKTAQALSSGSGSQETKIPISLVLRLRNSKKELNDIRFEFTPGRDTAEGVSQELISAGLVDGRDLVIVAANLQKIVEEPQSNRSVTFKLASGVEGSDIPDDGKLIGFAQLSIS

Series 1
Structure (SMILES): C[C@H](c1ccnc(Nc2nc3ccc(-c4cc(N(C)C)ncn4)cc3[nH]2)c1)N1CCN(C(=O)CC(F)(F)F)CC1
Tested at: 0.1 µM
Measurement: remaining binding
AP2-associated protein kinase 1 (AAK1, Homo sapiens, UniProt Q2M2I8); binding: 60%
Vascular endothelial growth factor receptor 2 (KDR, Homo sapiens, UniProt P35968); cell-free assay, competition with immobilised ligand: 100%
Receptor-interacting serine/threonine-protein kinase 2 (RIPK2, Homo sapiens, UniProt O43353); cell-free assay, competition with immobilised ligand: 71%
Epidermal growth factor receptor (EGFR, Homo sapiens, UniProt P00533, del747-750/T751S); cell-free assay, competition with immobilised ligand: 86%
Protein-tyrosine kinase 6 (PTK6, Homo sapiens, UniProt Q13882); cell-free assay, competition with immobilised ligand: 85%
Serine/threonine-protein kinase 10 (STK10, Homo sapiens, UniProt O94804); cell-free assay, competition with immobilised ligand: 86%
NT-3 growth factor receptor (NTRK3, Homo sapiens, UniProt Q16288); cell-free assay, competition with immobilised ligand: 100%
Tyrosine-protein kinase Lck (LCK, Homo sapiens, UniProt P06239); cell-free assay, competition with immobilised ligand: 100%
Mast/stem cell growth factor receptor Kit, autoinhibited (KIT, Homo sapiens, UniProt P10721); cell-free assay, competition with immobilised ligand: 100%
Serine/threonine-protein kinase SIK3 (SIK3, Homo sapiens, UniProt Q9Y2K2); cell-free assay, competition with immobilised ligand: 100%
Ephrin type-B receptor 1 (EPHB1, Homo sapiens, UniProt P54762); cell-free assay, competition with immobilised ligand: 98%
Serine/threonine-protein kinase mTOR (MTOR, Homo sapiens, UniProt P42345); cell-free assay, competition with immobilised ligand: 75%
Mast/stem cell growth factor receptor Kit (KIT, Homo sapiens, UniProt P10721, V559D); cell-free assay, competition with immobilised ligand: 99%
Serine/threonine-protein kinase pim-3 (PIM3, Homo sapiens, UniProt Q86V86); cell-free assay, competition with immobilised ligand: 87%
RAF proto-oncogene serine/threonine-protein kinase (RAF1, Homo sapiens, UniProt P04049); cell-free assay, competition with immobilised ligand: 97%
Tyrosine-protein kinase ABL1, non-phosphorylated (ABL1, Homo sapiens, UniProt P00519, H396P); cell-free assay, competition with immobilised ligand: 79%
Receptor-type tyrosine-protein kinase FLT3 (FLT3, Homo sapiens, UniProt P36888, D835H); cell-free assay, competition with immobilised ligand: 71%
Serine/threonine-protein kinase PRP4 homolog (PRPF4B, Homo sapiens, UniProt Q13523); cell-free assay, competition with immobilised ligand: 80%
Leucine-rich repeat serine/threonine-protein kinase 2 (LRRK2, Homo sapiens, UniProt Q5S007, G2019S); cell-free assay, competition with immobilised ligand: 100%
MAP/microtubule affinity-regulating kinase 4 (MARK4, Homo sapiens, UniProt Q96L34); cell-free assay, competition with immobilised ligand: 100%
Serine/threonine-protein kinase Nek11 (NEK11, Homo sapiens, UniProt Q8NG66); cell-free assay, competition with immobilised ligand: 96%
Receptor-type tyrosine-protein kinase FLT3 (FLT3, Homo sapiens, UniProt P36888, R834Q); cell-free assay, competition with immobilised ligand: 100%
Hormonally up-regulated neu tumor-associated kinase (HUNK, Homo sapiens, UniProt P57058); cell-free assay, competition with immobilised ligand: 95%

Series 2
Structure (SMILES): CC(C)n1cnc(-c2ccc(F)cc2)c1-c1ncc(C(=O)Nc2ccc(N3CCN(C)CC3)cc2)[nH]1
Technique: phase 2a clinical trial
Host: idiopathic pulmonary fibrosis patients
Measurement: patients with TEAEs
refers to: reproductive and breast disorders; dose not given, grade 5, all drug arms: 0%
refers to: respiratory tract infection; 60 mg once daily, grade 2 maximum intensity; relative to: patients: 1%
refers to: reproductive and breast disorders; 30 mg once daily, grade 4 maximum intensity: 0%
refers to: investigations (SOC); dose not given, grade 2, all drug arms; relative to: patients: 3%
refers to: chest discomfort; dose not given, grade 1, all drug arms; relative to: patients: 1%
refers to: gamma-glutamyltransferase increased; 60 mg once daily, grade 2 maximum intensity; relative to: patients: 1%
refers to: back pain; dose not given, grade 2, all drug arms; relative to: patients: 1%
refers to: neutrophil count increased; dose not given, grade 1, all drug arms; relative to: patients: 1%
refers to: back pain; dose not given, grade 1, all drug arms; relative to: patients: 1%

Series 3
Cell line: HaCaT
Tested at: 100 µM
Time: 36 h
Measurement: viability
CC(=O)NS(=O)(=O)c1ccc(NC(=O)c2ccccc2C(=O)O)cc1: 75.3%
C#C[C@]1(O)CC[C@H]2[C@@H]3CCC4=C(CCC(=O)C4)[C@H]3CC[C@@]21C: 95.3%
O=C(O)/C=C/c1ccc(Cn2ccnc2)cc1: 105%
Nc1nc(Cl)nc2c1ncn2[C@H]1C[C@H](O)[C@@H](CO)O1: 34.3%
CN1CCOC(c2ccccc2)c2ccccc2C1 (stereo not shown): 76.6%
O=c1oc2ccccc2c(O)c1Cc1c(O)c2ccccc2oc1=O: 35.5%
CCC(=O)O[C@]1(C(=O)SCF)[C@H](C)C[C@H]2[C@@H]3C[C@H](F)C4=CC(=O)C=C[C@]4(C)[C@@]3(F)[C@@H](O)C[C@@]21C: 64.9%
CCN(CC)CCCC(C)Nc1ccnc2cc(Cl)ccc12 (stereo not shown): 4.68%
CCc1cc2c(cc1N1CCC(N3CCOCC3)CC1)C(C)(C)c1[nH]c3cc(C#N)ccc3c1C2=O: 13.8%
COc1cc(OC)c(C(=O)CCCN2CCCC2)c(OC)c1: 98.2%

Series 4
Compound: Oc1ccc(Nc2nc(-c3ccc(Cl)cc3)cs2)cc1
Effect on: enzyme activity
Action: inhibitor
Tested at: 0.5 µM
Relative to: control
Measurement: remaining activity
Mitogen-activated protein kinase kinase kinase 3 (MAP3K3, Homo sapiens, UniProt Q99759): 101%
Death-associated protein kinase 2 (DAPK2, Homo sapiens, UniProt Q9UIK4): 107%
Mitogen-activated protein kinase 9 (MAPK9, Homo sapiens, UniProt P45984): 98.3%
Serine/threonine-protein kinase STK11 (STK11, Homo sapiens, UniProt Q15831): 91.1%
Cyclin-dependent kinase 5, with p25 (CDK5, Homo sapiens, UniProt Q00535): 85.9%
Death-associated protein kinase 1 (DAPK1, Homo sapiens, UniProt P53355): 101%
Serine/threonine-protein kinase Nek2 (NEK2, Homo sapiens, UniProt P51955): 110%
Cyclin-dependent kinase 4, with cyclin D1 (CDK4, Homo sapiens, UniProt P11802): 108%
Inhibitor of nuclear factor kappa-B kinase subunit epsilon (IKBKE, Homo sapiens, UniProt Q14164): 95.9%
TGF-beta receptor type-2 (TGFBR2, Homo sapiens, UniProt P37173): 112%
Inhibitor of nuclear factor kappa-B kinase subunit beta (IKBKB, Homo sapiens, UniProt O14920): 104%
Serine/threonine-protein kinase Chk2 (CHEK2, Homo sapiens, UniProt O96017): 97.9%
G protein-coupled receptor kinase 3 (GRK3, Homo sapiens, UniProt P35626): 97.6%
Serine/threonine-protein kinase OSR1 (OXSR1, Homo sapiens, UniProt O95747): 88.8%
cGMP-dependent protein kinase 1, isoform beta (PRKG1, Homo sapiens, UniProt Q13976): 94.1%
Protein kinase C alpha type (PRKCA, Homo sapiens, UniProt P17252): 113%
Calcium/calmodulin-dependent protein kinase kinase 2 (CAMKK2, Homo sapiens, UniProt Q96RR4): 101%
TGF-beta receptor type-1 (TGFBR1, Homo sapiens, UniProt P36897): 99.9%
cAMP-dependent protein kinase catalytic subunit alpha (PRKACA, Homo sapiens, UniProt P17612): 105%
STE20/SPS1-related proline-alanine-rich protein kinase (STK39, Homo sapiens, UniProt Q9UEW8): 94.2%
Calcium/calmodulin-dependent protein kinase type II subunit delta (CAMK2D, Homo sapiens, UniProt Q13557): 98.8%
Serine/threonine-protein kinase 10 (STK10, Homo sapiens, UniProt O94804): 96.6%

Repeated from above (series 2):
refers to: reproductive and breast disorders; dose not given, grade 5, all drug arms: 0%
refers to: reproductive and breast disorders; 30 mg once daily, grade 4 maximum intensity: 0%
refers to: investigations (SOC); dose not given, grade 2, all drug arms; relative to: patients: 3%
refers to: neutrophil count increased; dose not given, grade 1, all drug arms; relative to: patients: 1%
refers to: gamma-glutamyltransferase increased; 60 mg once daily, grade 2 maximum intensity; relative to: patients: 1%
